Results collected from several papers.
Compare with care: the assays were run in different laboratories. Several values in a cell are separate wells, animals, samples, runs or records. ± gives the spread as reported. In brackets after ≈: the same amount, converted by molar mass.

| SMILES | assay | test system | setting | how to read | measurement | result |
| --- | --- | --- | --- | --- | --- | --- |
| CC[C@H](C)[C@H](NC(=O)[C@H](CCCCN)NC(=O)CNC(=O)[C@H](CC(C)C)NC(=O)[C@@H](NC(=O)[C@H](C)NC(=O)[C@H](CCCCN)NC(=O)CNC(=O)[C@H](C)NC(=O)CNC(=O)[C@H](CCCCN)NC(=O)[C@H](CCSC)NC(=O)[C@H](CCCCN)NC(=O)[C@@H](NC(=O)[C@H](Cc1c[nH]c2ccccc12)NC(=O)[C@H](CC(C)C)NC(=O)[C@H](CCCCN)NC(=O)[C@H](CCCCN)NC(=O)[C@H](CC(C)C)NC(=O)[C@@H](N)CC(C)C)[C@@H](C)O)C(C)C)C(=O)N[C@@H](CCCCN)C(=O)NCC(=O)N[C@@H](CC(C)C)C(=O)N[C@@H](CC(C)C)C(=O)O | acrylamide quenching | POPE:DOPG 3:1 vesicles | 2 µM, 250 µM total lipid, added: acrylamide |  | Stern-Volmer constant | 1.86 ± 0.01 M⁻¹ |
| CC1(C)C(=CC=CC=CC2=[N+](CCCCN=[N+]=[N-])c3ccc(S(=O)(=O)[O-])cc3C2(C)C)N(CCCCCC(=O)O)c2ccccc21 |  | PBS |  |  | fluorescence quantum yield | 13% |
| COC(=O)C[C@](O)(CCCC(C)(C)OC(C)=O)C(=O)O[C@@H]1C(OC)=C[C@]23CCCN2CCc2cc4c(cc2[C@H]13)OCO4 |  | CD1 mouse, pancreas | oral, 1 mg/kg, 2 h |  | tissue concentration | 228 ng/mL |
| CN(C)c1ccc(C(=O)NCCCCN2CCN(c3ccccc3O[11CH3])CC2)cc1 |  | male Sprague Dawley rat, muscle | iv, dose not given, added: cyclosporin A pretreatment | baseline: cyclosporin A over untreated | uptake ratio | 1.18 |
| CSCC[C@H](NC(=O)CNC(=O)[C@H](CC(=O)O)NC(=O)[C@@H](NC(=O)[C@@H](NC(=O)[C@@H](NC(=O)CNC(=O)[C@H](CCC(N)=O)NC(=O)[C@H](CCSC)NC(=O)[C@H](CC(=O)O)NC(=O)[C@H](C)NC(=O)[C@H](C)NC(=O)[C@@H](NC(=O)[C@H](CO)NC(=O)[C@@H](N)CC(C)C)[C@@H](C)O)C(C)C)C(C)C)[C@@H](C)O)C(=O)N[C@@H](C)C(=O)N[C@@H](CO)C(=O)NCC(=O)N[C@@H](CC(C)C)C(=O)N[C@@H](CC(=O)O)C(=O)N[C@@H](CCCCN)C(=O)N[C@@H](CC(=O)O)C(=O)N[C@@H](Cc1ccc(O)cc1)C(=O)N[C@@H](CC(C)C)C(=O)N[C@@H](CCCCN)C(=O)N1CCC[C@H]1C(=O)N[C@@H](CC(=O)O)C(=O)N[C@@H](CC(=O)O)C(=O)O |  | human, serum | intravenous, 4.16 mg/kg, patients, infusion |  | Cmax | 13.7 µg/mL |
| CC[C@H](C)[C@H](NC(=O)CN)C(=O)NCC(=O)N[C@@H](C)C(=O)N[C@H](C(=O)N[C@@H](CC(C)C)C(=O)N[C@@H](CCCCN)C(=O)N[C@H](C(=O)N[C@@H](CC(C)C)C(=O)N[C@H](C(=O)N[C@H](C(=O)NCC(=O)N[C@@H](CC(C)C)C(=O)N1CCC[C@H]1C(=O)N[C@@H](C)C(=O)N[C@@H](CC(C)C)C(=O)N[C@H](C(=O)N[C@@H](CO)C(=O)N[C@@H](Cc1c[nH]c2ccccc12)C(=O)N[C@H](C(=O)N[C@@H](CCCCN)C(=O)N[C@@H](CCCNC(=N)N)C(=O)N[C@@H](CCCCN)C(=O)N[C@@H](CCCNC(=N)N)C(=O)N[C@@H](CCC(N)=O)C(=O)N[C@@H](CCC(N)=O)C(N)=O)[C@@H](C)CC)[C@@H](C)CC)[C@@H](C)O)[C@@H](C)O)C(C)C)C(C)C |  | BALB/c mouse | iv, single dose |  | LD100 | ~3 mg/kg |
| CCCCCCCC(=O)OC[C@H](NC(=O)[C@H](CO)NC(=O)CN)C(=O)N[C@@H](Cc1ccccc1)C(=O)N[C@@H](CC(C)C)C(=O)N[C@@H](CO)C(=O)N1CCC[C@H]1C(=O)N[C@@H](CCC(=O)O)C(=O)N[C@@H](Cc1cnc[nH]1)C(=O)N[C@@H](CCC(N)=O)C(=O)N[C@@H](CCCNC(=N)N)C(=O)N[C@H](C(=O)N[C@@H](CCC(N)=O)C(=O)N[C@@H](CCC(N)=O)C(=O)N[C@@H](CCCNC(=N)N)C(=O)N[C@@H](CCCCN)C(=O)N[C@@H](CCC(=O)O)C(=O)N[C@@H](CO)C(=O)N[C@@H](CCCCN)C(=O)N[C@@H](CCCCN)C(=O)N1CCC[C@H]1C(=O)N1CCC[C@H]1C(=O)N[C@@H](C)C(=O)N[C@@H](CCCCN)C(=O)N[C@@H](CC(C)C)C(=O)N[C@@H](CCC(N)=O)C(=O)N1CCC[C@H]1C(=O)N[C@@H](CCCNC(=N)N)C(=O)O)C(C)C |  | human, both sexes, plasma | intravenous infusion, 3 µg/kg/h, 65 min infusion |  | clearance | 5.73 ± 0.91 mL/min/kg |
| O=C([O-])C[N+]12CC(=O)[O][Re-2]1[O]P(=O)([O-])C2.[C-]#[O+].[C-]#[O+].[C-]#[O+] (stereo not shown) | HPLC | aqueous solution | 1 d, pH 6, room temperature |  | isomer fraction at equilibrium | 48% |
| CN[C@](C)(C[18F])C(=O)O |  | mouse, blood | 15 min, tumour-bearing |  | tracer uptake | 2.6 %ID/g |
| C1=CCCC=CCC1.C1=CCCC=CCC1.[Cl][Hg-]([Cl])[Cl].[Cl][Hg-]([Cl])[Cl].[Pt+][c]1ccccc1P(=Nc1ccccc1)(c1ccccc1)c1ccccc1.[Pt+][c]1ccccc1P(=Nc1ccccc1)(c1ccccc1)c1ccccc1 | NMR | DMSO-d6 | 1 week |  | free COD released | ~6% |
| CC(C)[C@H](NC(=O)CNC(=O)[C@H](CCC(N)=O)NC(=O)[C@H](C)N)C(=O)O | any adverse event | human | 10 mg/kg, 3 days, thrice daily dosing |  | subjects with adverse events | 50% |
| N=C(N)NCc1ccc(C(=O)NCCCC[C@H](NC(=O)N[C@@H](CCC(=O)O)C(=O)O)C(=O)O)cc1[131I] |  | SCID mouse, PC-3 xenografts, blood | 2 h |  | tissue uptake | 0.37 ± 0.07 %ID/g |
| CC(C)C[C@@H](NC(=O)[C@@H](CCCCN)NC(=O)CNC(=O)CNC(=O)[C@@H]1CSSC[C@H](N)C(=O)NCC(=O)N[C@@H](CCCNC(=N)N)C(=O)N[C@@H](CCCNC(=N)N)C(=O)N[C@@H](C)C(=O)NCC(=O)NCC(=O)N[C@@H](CO)C(=O)N1)C(=O)N[C@H](C)C(=O)N[C@H](CCCCN)C(=O)N[C@H](CC(C)C)C(=O)N[C@H](C)C(=O)N[C@H](CCCCN)C(=O)N[C@H](CCCCN)C(=O)N[C@H](CC(C)C)C(=O)N[C@H](C)C(=O)N[C@H](CCCCN)C(=O)N[C@H](CC(C)C)C(=O)N[C@H](C)C(=O)N[C@H](CCCCN)C(=O)O |  | cynomolgus monkey, plasma | intravenous, 9 mg/kg, infusion |  | MRT | 58.2 min |
| O=C(CN1CCN(c2cc3c(cc2F)c(=O)c(C(=O)O)cn3C2CC2)CC1)Nc1ccc(Cl)cc1 |  | BALB/c mouse, female | intravenous, 3.75 mg/kg |  | distribution half-life | 19 min |
| CC[C@H](C)[C@H](NC(=O)[C@H](CCCCN)NC(=O)[C@@H](NC(=O)[C@H](CCC(N)=O)NC(=O)[C@H](CCCNC(=N)N)NC(=O)[C@@H](N)CC(=O)O)[C@@H](C)CC)C(=O)N[C@@H](Cc1c[nH]c2ccccc12)C(=O)N[C@@H](Cc1ccccc1)C(=O)N[C@@H](CCC(N)=O)C(=O)N[C@@H](CC(N)=O)C(=O)N[C@@H](CCCNC(=N)N)C(=O)N[C@@H](CCCNC(=N)N)C(=O)N[C@@H](CCSC)C(=O)N[C@@H](CCCCN)C(=O)N[C@@H](Cc1c[nH]c2ccccc12)C(=O)N[C@@H](CCCCN)C(=O)N[C@@H](CCCCN)C(=O)N[C@@H](CC(C)C)C(=O)N[C@@H](CC(=O)O)C(=O)N[C@@H](Cc1c[nH]c2ccccc12)C(=O)N[C@@H](CO)C(=O)N[C@@H](Cc1c[nH]c2ccccc12)C(=O)N[C@@H](CC(C)C)C(=O)O | HPLC | 5XFAD transgenic mice, hippocampus | intranasal, 0.1 mg/kg every 2 days, 30 d |  | concentration | 0.312 µg/mg tissue |
| C/C=C/C=C/C/C=C/CCCCCCCc1cccc(O)c1O |  | female Kunming mice, tumour-bearing, tumor | intravenous, 10 mg/kg, 2 h |  | tissue concentration | 49200 ± 3630 ng/g |
| COCCOCCOCCOc1ccc(/C=C/C2=[N+]3C(=C(c4cc(OC)cc(OC)c4)c4c(C)c(I)c(/C=C/c5ccc(OCCOCCOCCOC)cc5)n4[B-]3(F)F)C(C)=C2I)cc1 |  | DMSO |  | baseline: methylene blue | fluorescence quantum yield | 0.2 and 0.17 |
| CC(C)C[C@@H]1NC(=O)[C@@H](Cc2ccccc2)NC(=O)[C@H](CCN)NC(=O)[C@@H](NC(=O)[C@H](CN)NC(=O)[C@@H](NC(=O)CC(CN)Cc2ccccc2)[C@@H](C)O)CCNC(=O)[C@H]([C@@H](C)O)NC(=O)[C@H](CCN)NC(=O)[C@H](CCN)NC1=O (stereo partly shown) | ELISA | male CD-1 mouse, urine | subcutaneous, 25 mg/kg, 4 doses every 8 h, 24 h urine collection, nephrotoxicity |  | urinary albumin excretion | 749 µg/24 h |
| CN(C)C(CNC(=O)Nc1cc(C(F)(F)F)ccc1N1CCOCC1)c1ccncc1 (stereo not shown) |  | mouse, serum | intraperitoneal, 120 mg/kg single dose |  | serum glucose | 254 mg/dL |
| CC(C)C[C@H](NC(=O)[C@H](CCCCN)NC(=O)[C@H](CCC(=O)O)NC(=O)[C@H](C)NC(=O)[C@@H](NC(=O)[C@H](CCCCN)NC(=O)[C@H](CC(=O)O)NC(=O)[C@H](Cc1ccc(O)cc1)NC(=O)[C@H](Cc1ccccc1)NC(=O)[C@H](C)NC(=O)[C@H](CCCCN)NC(=O)[C@H](CC(C)C)NC(=O)[C@H](Cc1c[nH]c2ccccc12)NC(=O)[C@@H](N)CC(=O)O)C(C)C)C(=O)N[C@@H](CCCCN)C(=O)N[C@@H](CCC(=O)O)C(=O)N[C@@H](C)C(=O)N[C@@H](Cc1ccccc1)C(=O)N1CCC[C@H]1C(=O)N[C@@H](CC(=O)O)C(=O)N[C@@H](Cc1c[nH]c2ccccc12)C(=O)N[C@@H](C)C(=O)N[C@@H](CCCCN)C(=O)N[C@@H](C)C(=O)N[C@@H](C)C(=O)N[C@@H](Cc1ccc(O)cc1)C(=O)N[C@@H](CC(=O)O)C(=O)N[C@@H](CCCCN)C(=O)N[C@@H](C)C(=O)N[C@@H](C)C(=O)N[C@@H](CCC(=O)O)C(=O)N[C@@H](CCCCN)C(=O)N[C@@H](C)C(=O)N[C@@H](CCCCN)C(=O)N[C@@H](CCC(=O)O)C(=O)N[C@@H](C)C(=O)N[C@@H](C)C(=O)O |  | cynomolgus monkey male, plasma | intravenous infusion, 25 mg/kg, day 1, 30 min infusion |  | Cmax | 459 µg/mL |
| O=c1c2ccccc2[se]n1CCCn1[se]c2ccccc2c1=O |  | 1% Soluplus in water | 24 h, 25 °C, 10 mg/mL |  | solubility | 115 ± 7 µg/mL (≈ 264 µM) |
| CC[C@@H]1C[C@]1(NC(=O)[C@@H]1C[C@@]2(CN1C(=O)[C@@H](NC(=O)[C@@H](NC(=O)[C@@H]1CCCCN1C(C)C)C1CCCCC1)C(C)(C)C)C(C)(C)C21CCC1)C(=O)NS(=O)(=O)N1CCCC1 |  | healthy human | oral, 1000 mg single dose |  | subjects with nausea | 50% |
| C=C1C(=O)OC2C1CCC(Cn1cc(-c3cc(C(F)(F)F)cc(C(F)(F)F)c3)nn1)=C1CCC(C)(O)C12 (stereo not shown) | flow cytometry | mouse, bone marrow | dose not given |  | LSK cell number | no effect |
| CC[C@H](C)C(=O)N1CCC(NC(=O)Nc2ccc(OC(F)(F)F)c(F)c2)CC1 |  | human, plasma | oral, 8 mg, single dose, healthy volunteers |  | AUC(0-inf) | 3690 ng·h/mL |
| O=c1cc(-c2ccccc2)oc2c(Br)c(O)c(O)c(O)c12 |  | C57BL/6 mouse, plasma | oral, 250 mg/kg, single dose |  | AUC(0-t) | 50900 ng·h/mL |
| c1ccc(C2(CCNC3CCC4(SCCS4)c4ccccc43)CCOC3(CCCC3)C2)nc1 (stereo not shown) |  | dog | intravenous, 0.3 mg/kg |  | AUC(0-24 h) | 302 ng·h/mL |
| CC(C)(CCCC/C=C/CCCCCC(C)(C)C(=O)O)C(=O)O |  | rhesus monkey, male, hyperlipidaemic, plasma | oral, 20 mg/kg, first dose |  | Cmax | 139 ± 48.3 µg/mL |
| CC[C@H](C)[C@H](NC(=O)[C@H](CCC(=O)O)NC(=O)[C@H](CCC(=O)O)NC(=O)[C@H](Cc1ccccc1)NC(=O)[C@H](CC(=O)O)NC(=O)CNC(=O)[C@H](CC(N)=O)NC(=O)CNC(=O)CNC(=O)CNC(=O)CNC(=O)[C@@H]1CCCN1C(=O)[C@H](CCCNC(=N)N)NC(=O)[C@@H]1CCCN1C(=O)[C@H](N)Cc1ccccc1)C(=O)N1CCC[C@H]1C(=O)N[C@@H](CCC(=O)O)C(=O)N[C@@H](CCC(=O)O)C(=O)N[C@@H](Cc1ccc(O)cc1)C(=O)N[C@@H](CC(C)C)C(=O)O | LC-MS/MS | processed plasma samples | 7 h, autosampler stability, nominal 30.0 ng/mL |  | concentration | 0.0299 ± 0.0009 µg/mL |

Excerpt of the above:
| SMILES | assay | test system | setting | how to read | measurement | result |
| --- | --- | --- | --- | --- | --- | --- |
| O=c1cc(-c2ccccc2)oc2c(Br)c(O)c(O)c(O)c12 |  | C57BL/6 mouse, plasma | oral, 250 mg/kg, single dose |  | AUC(0-t) | 50900 ng·h/mL |
